Assay results pooled from the literature.
Every numbered part comes from another study and shows a few of its results, in no order.

Study 1 — technique: protein binding microarray; form: double-stranded DNA, one strand shown; medium: in vitro; concentration: not given; baseline: not given; direction: higher = stronger binding
Target: Histone acetyltransferase KAT6A, winged helix 1, GST fusion (KAT6A, Homo sapiens, UniProt Q92794, residues 1-85)
Setting: 8-mer, flanks averaged, mean of 2 arrays, mostly near background
Construct (chain): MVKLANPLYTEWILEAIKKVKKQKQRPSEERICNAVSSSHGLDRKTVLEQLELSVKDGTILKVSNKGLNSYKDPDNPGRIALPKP
Sequence | E-score
CCGGCCTC | 0.18
GTGCTATA | -0.0929
CCGTGTTA | 0.308
TCAGTAGA | -0.0832
AGGTCCTG | -0.179
AACAGGAG | -0.319
ACGGCAAT | 0.347
CTACCGAA | -0.111
AAGGATGT | -0.206
CACGGCGG | 0.434
GGATTAGA | -0.0697
CTACCAAG | -0.201
AGCGTGCC | 0.162
CTGGTATA | -0.0208
CCCGTCCC | 0.311
GAGGTAAA | -0.201
CAGGAAAA | -0.114
AGATTCAG | -0.15
TATGTAGA | -0.23
CCCTCTAA | -0.199
CACGGACG | 0.292

Study 2 — technique: aptamer microarray, sandwich; form: DNA with 2'F-ANA; medium: in vitro; concentration: 200 nM; added: Cy3 exosite-II aptamer, 400 nM; direction: higher = stronger binding; sequence: GGTTGGTGTGGTTGG
Target: Prothrombin, mature alpha-thrombin (F2, Homo sapiens, UniProt P00734)
Setting: whole 15-mer aptamer, many near background
Modification | mean fluorescence intensity [a.u.]
2'F-ANA at 1 4 5 13 | 64
2'F-ANA at 5 8 9 10 11 14 | 56.5
2'F-ANA at 2 4 5 6 8 9 | 80.5
2'F-ANA at 1 2 3 6 7 8 9 10 11 13 | 65.3
2'F-ANA at 2 4 12 13 15 | 413
2'F-ANA at 5 6 7 8 11 12 13 14 15 | 49.9
2'F-ANA at 1 2 5 6 8 9 10 13 14 | 61.9
2'F-ANA at 1 2 3 4 5 7 8 10 11 12 14 15 | 50.1
2'F-ANA at 2 3 5 7 13 14 | 58.5
2'F-ANA at 1 2 3 4 8 9 10 11 13 14 | 57.8
2'F-ANA at 1 2 5 8 9 10 11 13 14 | 49.4
2'F-ANA at 1 2 4 5 6 9 11 13 14 15 | 48.2
2'F-ANA at 1 3 5 6 8 12 13 14 15 | 104
2'F-ANA at 2 3 4 7 10 12 | 394
2'F-ANA at 1 2 3 4 6 7 9 11 12 14 15 | 63.2
2'F-ANA at 1 3 4 5 6 8 9 11 14 15 | 53.4
2'F-ANA at 1 2 6 7 8 9 10 11 | 55.1
2'F-ANA at 1 2 3 5 6 7 9 15 | 56.9
2'F-ANA at 6 7 8 10 11 13 15 | 123
2'F-ANA at 1 3 5 6 8 9 10 12 13 15 | 61.2
2'F-ANA at 5 6 7 8 10 11 14 15 | 45.5
2'F-ANA at 3 5 6 7 9 10 11 12 13 15 | 58.2
2'F-ANA at 2 6 10 11 12 15 | 199
2'F-ANA at 2 3 4 8 9 10 12 15 | 281
2'F-ANA at 4 5 8 11 12 14 15 | 54.5

Study 3 — technique: Spec-seq; form: double-stranded DNA, one strand shown; medium: in vitro; concentration: not given; setting: whole probe, mean of replicates; baseline: not given; direction: lower = stronger binding; shared flanks, not repeated: GAGTCGTCTCGTCAGCAC … CCGTAGAGCACTCAGGTC
Target: POU, POU domain (Salpingoeca helianthica)
Construct (chain): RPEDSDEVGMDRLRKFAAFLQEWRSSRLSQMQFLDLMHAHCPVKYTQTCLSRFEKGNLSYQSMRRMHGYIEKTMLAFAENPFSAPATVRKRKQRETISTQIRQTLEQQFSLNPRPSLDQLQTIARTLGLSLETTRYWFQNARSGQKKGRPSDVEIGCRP
Sequence | relative binding energy
ATGAATAT | 0.706 ln ratio
ATCTAGAT | 1.13 ln ratio
TCTTTAAT | -0.358 ln ratio
TCCTTAAT | 0.364 ln ratio
ATGCGCTC | 1.47 ln ratio
ATTGCGAT | 1.38 ln ratio
ATGCAAAC | 1.05 ln ratio
TAGCTAAT | 0.365 ln ratio
ATGCCTAC | 1.06 ln ratio
ATTGACAT | 1.03 ln ratio
ATTATAAT | -0.687 ln ratio

Study 4 — technique: RNA Bind-n-Seq; form: RNA; medium: in vitro; concentration: 365 nM; baseline: no-protein control; direction: higher = stronger binding
Target: RNA binding protein fox-1 homolog 2, RRM domain, GST-SBP tag (RBFOX2, Homo sapiens, UniProt O43251-10, residues 100-194)
Setting: natural RNA segment, single round, ends assumed
Shared flanks, not repeated: GGGAGUUCUACAGUCCGACGAUC … UGGAAUUCUCGGGUGCCAA
Residues (chain): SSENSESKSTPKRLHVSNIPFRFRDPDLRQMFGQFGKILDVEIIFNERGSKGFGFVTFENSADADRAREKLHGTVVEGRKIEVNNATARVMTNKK
Sequence | RBNS enrichment (R)
AAUAGAGACGCUGCUUCUCCCUCGCCUGGUGCCGCCCCCGCCGGGCAGGGGCCAUCCACCCGCCCCAGGACCAGCCCUCAGGGAGGGGAAACGGCCGAGAGCCCCCCCCC | 0.424
UGGCAGCUGGCAUCGUGUCGCUUUAUCUGCCCCCGCACAGUUUGCUUUGUACGUCUGCCAAGAAUCUUCCAGUUAUUAGCAAACUCAGACGAAUGUACCGCCAGUAUUAU | 0.723
GACUUAUUGUCCCCACUAAAACAAAACAAAAAACUUUUAAUGCCUUCCACAUUAAUUAGAUUUUCUUGCAGUUUUUUUAUGGCAUUUUUUUAAAGAUGCCCUAAGUGUUG | 0.432
UAUGAAACGAAUGUGUUUUUGACUGUUAACUGGGUUCGCUUUCCAGAUCUGUCUUUCCCAAAUGAAAGGUUAGUCCCAUAGACCACUGGCUAUUCAGGGAAAUUACUCUC | 0.421
CUGACUCUGGCUGCUGCUGAACACCGGGCCUGGACAGGUUGCUGAGGCUGGCUUUGAACUUGGGAUCCUGAGGCUUCAGACUCCCAGGUGGCUGUUUAUUCUCUCUAACC | 0.252
GUUUGCAUUAAUAUCAAGGCAAAAAGCAUUCAUAGAUACAUGCAUCUGAUUUGGUAUUGUGAUUUACUUCAGACCCUGAAACCAAAUAUCUGAUCUUCCAUUAGACUUAG | 1.43
AUCUAUCAUAUAGAGCUAUAUGUAUGGAAAAUUUUGAUCAAUUUUUUAAGAAAUGUAUCCUGUUUGCAAAGGCACAGUAAAGUUGCAUCUUAUAGACUAUAGGCAAUAAA | 0.484
GGCAUUAAUAAGGGAGCUUACCAUUCUGGUGGGAUGUGCAUGAGGCGUUCACAGCCCCCAUACAUGGAUCUUGUUUAAAGUGUAUUAUUUAAAAGGUCAGGGUGUUAUUU | 1.03
GGGUCCCCGGGAGCACACGAACCCUGCCAGGCCCCCGCUGGCUCCUCCAGGCACGUCCCGGACCUGUGGGGCCCCAGAGAGGGGACAUUUCCCUCCUGGGAGAGAAGGAG | 0.508
UAUGUUGUCUGUGUUGUAUUUUUUUUUUUUUAUUGACCAUGGUGAUUAUUUUUUUAAACCAUCGUUAAUAUACUGAAGUGAGCUAUAGCACAUAUCAUGUGCUUAGUUUG | 0.338
UUGAUUUGACCAGCAUGCACUCAGAUUAGCUGCUCGACAGAGGUGUCCCCUUUUCAAUGAACCAUCAUGACUGUCCCAGUGUCGGAUGCAAGGGUGCCACGGGCUCUGAA | 7.49
ACAUCUGUCUGUGUUAAAAUAAUCAAACGAAAAAUCAGUCCUGUGUUGUCAGCAUGAUUCAUGUAUUUAUAUAGAUUUGAUUAUUUUAAUUUUCCUGUCUCUUUUUUUUG | 2.15
